Measurements of several laboratories.
Values joined by “and” are separate records of one study, mostly repeats; a detail may differ.
Cell line: MRC5

| Compound | test | setting | IC50 |
| --- | --- | --- | --- |
| C/C1=C/C[C@H]2[C@@H]3[C@@H]([C@@]4(C)CO4)CC[C@@]3(C)CC[C@]2(C)C[C@H]2[C@@H](C)CC[C@@H]12 | cell growth or viability, MTT | 72 h | 14 µM |
| Cc1cc(C)c([N+]#[C][Pd-]([Cl])([Cl])=[C](Nc2ccc(CN[C](Nc3c(C(C)C)cccc3C(C)C)=[Au][Cl])cc2)Nc2c(C)cc(C)cc2C)c(C)c1 | cell growth or viability |  | 6 µM |
| C=C(C)[C@H]1CC[C@@]2(C)CC[C@]3(C)C[C@H]4[C@@H](C)C[C@@]5(O)OC(=O)/C(=C/C[C@H]3[C@H]12)[C@@H]45 | cell growth or viability, MTT | 72 h | 15 µM |
| COc1ccccc1C(=O)c1c(-n2c(C(=O)c3ccccc3OC)cc(Cl)c2Cl)c(Cl)c(Cl)n1C | cell growth or viability, resazurin | 24 h | > 64 µg/mL |
| COc1ccc(/N=N/C(=S)N2CCCC2)cc1 | cell growth or viability, resazurin | 48 h | > 50 µM |
| C[C@]12CC[C@@H]3c4ccc(O)cc4CC[C@H]3[C@@H]1CC[C@@]2(O)c1cn(CC(=O)c2ccc(Cl)cc2)nn1 | cell growth or viability, resazurin | 72 h | > 50.8 µM |
| C[C@]12CC/C(=N\OCCN3CCCC3)C=C1CCC1C2CC[C@]2(C)/C(=C/c3ccccn3)CCC12 (stereo partly drawn) | cell growth or viability, MTT | 72 h | > 100 µM |
| CC1=C(Cn2c3cccc(=O)c-3nc3ccccc32)CCC(C)(C)C1 | cell growth or viability, CCK-8 | 72 h | 0.68 µM |
| Cc1cc(C)c(N=[C](NCc2cccc(N)c2)[AuH][Cl])c(C)c1 | cell growth or viability |  | > 100 µM |
| CC(C)=CCn1c2ccc(Br)c(=O)c-2nc2ccccc21 | cell growth or viability, CCK-8 | 72 h | 0.54 µM |
| c1ccc(-n2nc(-c3ccccn3)n[n+]2-c2ccccc2)cc1 | cell growth or viability, resazurin | 72 h | > 900 µM |
| CN(C)C(=S)N(C)N=Cc1ccccc1SSc1ccccc1C=NN(C)C(=S)N(C)C | cell growth or viability, MTT | 72 h | 17 µM |
| c1ccc(-c2nn(-c3ccccn3)[n+](-c3ccccc3)n2)cc1 | cell growth or viability, resazurin | 72 h | > 160 µM and 210 µM |
| CC1=C(Cn2c3ccc(Cl)c(=O)c-3nc3ccccc32)CCC(C)(C)C1 | cell growth or viability, CCK-8 | 72 h | 0.37 µM |
| CN1CCCC1CCO/N=C1/C=C2CCC3C(CC[C@]4(C)/C(=C/c5ccccn5)CCC34)[C@@]2(C)CC1 (stereo partly drawn) | cell growth or viability, MTT | 72 h | > 100 µM |
| c1ccc(-c2nn(-c3nc4ccccc4s3)[n+](-c3ccccc3)n2)cc1 | cell growth or viability, resazurin | 72 h | 97 µM |
| Cc1cc(C)c(N[C](NCc2cccc(N[C](Nc3c(C(C)C)cccc3C(C)C)=[Pt-]([Cl])([Cl])[C]#[N+]c3c(C(C)C)cccc3C(C)C)c2)=[Au][Cl])c(C)c1 | cell growth or viability |  | > 100 µM |

| Compound | test | setting | IC50 |
| --- | --- | --- | --- |
| O=C(c1ccc[nH]1)c1ccccc1O | cell growth or viability, resazurin | 24 h | > 64 µg/mL |
| Cc1cc(C)c([N+]#[C][Pd-]([Cl])([Cl])=[C](Nc2cccc(CN[C](NC(C)(C)C)=[Au][Cl])c2)Nc2c(C)cc(C)cc2C)c(C)c1 | cell growth or viability |  | > 100 µM |
| C[C@]12CC/C(=N\O)C=C1CCC1C2CC[C@]2(C)/C(=C/c3ccccn3)CCC12 (stereo partly drawn) | cell growth or viability, MTT | 72 h | > 100 µM |
| Cc1cc(C)c([N+]#[C][Pd-]([Cl])([Cl])=[C](Nc2ccc(CN[C](NC(C)(C)C)=[Au][Cl])cc2)Nc2c(C)cc(C)cc2C)c(C)c1 | cell growth or viability |  | > 100 µM |
| CN(C)CCCO/N=C1/C=C2CCC3C(CC[C@]4(C)/C(=C/c5ccccn5)CCC34)[C@@]2(C)CC1 (stereo partly drawn) | cell growth or viability, MTT | 72 h | > 100 µM |
| CC(C)(C)N=[C](NCc1cccc(N)c1)[AuH][Cl] | cell growth or viability |  | > 100 µM |
| COc1ccc(C(=O)c2cc(C(=O)c3cc(Cl)ccc3O)c[n+]3c2NCCCC3)cc1 | cell growth or viability, MTT | 96 h | 34 µM |
| COc1ccc(/N=N/C(=S)N2CCOCC2)cc1 | cell growth or viability, resazurin | 48 h | > 50 µM |
| C[C@]12CC/C(=N\OCCN3CCOCC3)C=C1CCC1C2CC[C@]2(C)/C(=C/c3ccccn3)CCC12 (stereo partly drawn) | cell growth or viability, MTT | 72 h | > 100 µM |
| C[C@]12CC[C@@H]3c4ccc(O)cc4CC[C@H]3[C@@H]1CC[C@@]2(O)c1cn(CC(=O)c2ccc(Br)cc2)nn1 | cell growth or viability, resazurin | 72 h | > 46.6 µM |
| CC(C)c1cccc(C(C)C)c1N=[C](NCc1ccc(N)cc1)[AuH][Cl] | cell growth or viability |  | > 100 µM |
| Oc1ccccc1-c1nn(-c2ccccn2)[n+](-c2ccccc2)n1 | cell growth or viability, resazurin | 72 h | > 160 µM and 160 µM |
| CCCCCCCCCCCCCCCCNC(=O)[O][Pt]([Cl])([Cl])[O]C(=O)CCC(=O)O.N.N | cell growth or viability |  | 1.34 µM |
| Cc1cc(C)c([N+]#[C][Pt-]([Cl])([Cl])=[C](Nc2ccc(CN[C](NC(C)(C)C)=[Au][Cl])cc2)Nc2c(C)cc(C)cc2C)c(C)c1 | cell viability, CellTiter-Glo | 96 h | inactive |
| O=C1c2ccc(O)cc2OC1(O)Cc1ccc(O)c(O)c1 (stereo not drawn) | cell growth or viability, MTT | 72 h | > 400 µM |
| COc1ccc(C(=O)Cn2cc([C@]3(O)CC[C@H]4[C@@H]5CCc6cc(O)ccc6[C@H]5CC[C@@]43C)nn2)cc1 | cell growth or viability, resazurin | 72 h | > 52.5 µM |
